Experimental data from different studies.
Each numbered part is a random draw from the data of one study; scales do not carry over between parts.
UniProt P51451, sequence (whole entry, looked up): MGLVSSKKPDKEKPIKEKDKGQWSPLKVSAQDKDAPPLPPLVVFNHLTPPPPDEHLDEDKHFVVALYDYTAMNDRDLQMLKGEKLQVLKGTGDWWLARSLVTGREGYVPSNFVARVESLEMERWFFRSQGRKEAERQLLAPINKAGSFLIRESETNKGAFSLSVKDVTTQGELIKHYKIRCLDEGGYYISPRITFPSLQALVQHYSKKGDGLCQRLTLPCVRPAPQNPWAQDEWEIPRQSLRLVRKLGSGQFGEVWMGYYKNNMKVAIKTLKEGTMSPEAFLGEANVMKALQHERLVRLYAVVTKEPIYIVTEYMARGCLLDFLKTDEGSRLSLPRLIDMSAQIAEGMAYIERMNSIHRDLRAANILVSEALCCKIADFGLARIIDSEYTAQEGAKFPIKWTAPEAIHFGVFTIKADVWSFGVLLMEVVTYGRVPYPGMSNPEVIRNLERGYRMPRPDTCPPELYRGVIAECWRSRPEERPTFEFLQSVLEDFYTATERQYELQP
UniProt Q14004, sequence (whole entry, looked up): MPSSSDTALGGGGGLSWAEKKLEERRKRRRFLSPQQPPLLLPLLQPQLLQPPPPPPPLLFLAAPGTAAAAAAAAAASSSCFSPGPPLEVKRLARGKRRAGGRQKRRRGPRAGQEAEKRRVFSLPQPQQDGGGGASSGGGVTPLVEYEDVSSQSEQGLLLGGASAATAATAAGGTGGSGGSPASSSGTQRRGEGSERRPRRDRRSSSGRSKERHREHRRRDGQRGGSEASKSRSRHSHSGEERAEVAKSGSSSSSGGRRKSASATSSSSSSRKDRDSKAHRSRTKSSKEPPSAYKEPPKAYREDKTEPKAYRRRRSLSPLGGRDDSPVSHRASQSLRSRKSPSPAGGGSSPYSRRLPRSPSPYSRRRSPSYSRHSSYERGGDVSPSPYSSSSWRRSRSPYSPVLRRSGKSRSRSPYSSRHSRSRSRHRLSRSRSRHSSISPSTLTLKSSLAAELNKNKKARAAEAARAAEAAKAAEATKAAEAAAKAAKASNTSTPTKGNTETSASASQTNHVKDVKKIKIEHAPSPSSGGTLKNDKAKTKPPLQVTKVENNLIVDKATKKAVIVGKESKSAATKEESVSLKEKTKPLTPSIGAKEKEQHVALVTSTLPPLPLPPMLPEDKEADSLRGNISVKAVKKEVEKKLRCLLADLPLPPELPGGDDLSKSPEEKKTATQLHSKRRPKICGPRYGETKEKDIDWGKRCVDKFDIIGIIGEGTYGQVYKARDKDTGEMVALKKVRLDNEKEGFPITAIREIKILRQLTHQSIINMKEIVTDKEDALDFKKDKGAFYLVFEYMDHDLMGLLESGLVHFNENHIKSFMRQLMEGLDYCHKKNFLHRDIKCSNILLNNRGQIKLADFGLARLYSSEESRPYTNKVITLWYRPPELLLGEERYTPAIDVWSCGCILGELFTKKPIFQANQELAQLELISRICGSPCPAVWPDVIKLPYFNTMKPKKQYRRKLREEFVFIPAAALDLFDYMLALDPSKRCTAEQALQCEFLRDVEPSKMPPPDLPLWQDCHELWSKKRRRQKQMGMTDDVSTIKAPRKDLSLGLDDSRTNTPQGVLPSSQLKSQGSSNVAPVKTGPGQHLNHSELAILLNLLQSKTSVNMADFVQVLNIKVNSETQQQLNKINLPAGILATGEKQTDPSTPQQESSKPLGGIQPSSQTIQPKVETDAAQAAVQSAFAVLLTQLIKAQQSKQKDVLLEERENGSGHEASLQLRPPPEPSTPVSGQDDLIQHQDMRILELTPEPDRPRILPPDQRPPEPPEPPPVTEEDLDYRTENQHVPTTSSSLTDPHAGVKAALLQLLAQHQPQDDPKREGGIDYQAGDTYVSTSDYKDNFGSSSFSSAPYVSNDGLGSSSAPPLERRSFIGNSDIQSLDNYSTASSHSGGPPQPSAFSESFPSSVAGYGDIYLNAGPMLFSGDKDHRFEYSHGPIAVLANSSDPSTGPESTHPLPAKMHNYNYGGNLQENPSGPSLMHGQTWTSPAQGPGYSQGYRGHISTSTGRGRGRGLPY

Series 1
Target: RING finger protein unkempt homolog, zinc fingers 1-6, GST-SBP tag (UNK, Homo sapiens, UniProt Q9C0B0, residues 30-357)
UniProt Q9C0B0, sequence (30-357, looked up): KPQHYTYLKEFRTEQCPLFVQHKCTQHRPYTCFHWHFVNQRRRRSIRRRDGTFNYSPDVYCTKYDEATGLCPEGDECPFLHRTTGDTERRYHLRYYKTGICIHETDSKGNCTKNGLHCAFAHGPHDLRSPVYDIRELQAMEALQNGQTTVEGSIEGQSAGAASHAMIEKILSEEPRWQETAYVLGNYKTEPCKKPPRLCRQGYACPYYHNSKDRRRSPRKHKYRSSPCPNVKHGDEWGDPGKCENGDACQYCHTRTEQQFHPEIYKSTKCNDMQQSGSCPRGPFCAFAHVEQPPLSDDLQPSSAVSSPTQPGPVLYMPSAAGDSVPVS
Method: RNA Bind-n-Seq
Form: RNA
Medium: in vitro
Concentration: not given
Notes: RNA with constant flanks, human and mouse sites, ends assumed
Baseline: input RNA pool
Direction: higher = stronger binding
Measurement: bound/input enrichment
Constant ends, left off below: GGGAGUUCUACAGUCCGACGAUC … CAACAGAGGAUUGAGCAUCA
GAAACCAAGUAUCUUUUACCAAGUCUGGAAAAAGAAUUAUUCUUGGCAGAGCACAGUGAUCUUGAAGAAGGUGGACUGGAUCUGAAUGUCUCCUUAAAACCUGUUAGUUUCUAUAUAUCA: 1.48 ratio
GUUUUCUCCUAAUGGGCAUAUGUAUCUUUGUGGACACUUGGAAGAGAGGUUUUCUUGUACUCUCUCAUUUCUAGAAUCUUUAUACUCUUUUUCCUGCAAGGUUCUCUGCUUUUAACAGAU: 2.41 ratio
CCUAAUUCUCACUACCUCCGAUUACCUUUUAUUUUGAAUUGUCGCAUCUGCAGCACUGAGUGUUCACACUGUCCAACAGUACUAAGUUGUUGGUGUGGUCACUGCCCUUUCAUUUCCUUU: 0.338 ratio
GGGCAAGCAGUGCAGCUAGAAGACGGGACCACUGCAUUUAUCCACCACACCUCGAAAGACAGUUAUGACCAGAGCUCACUUCAGGCCGUUCAGUUAGAAGAUGGGACAACAGCUUAUAUC: 0.229 ratio
AGUGAGCCUGAAGAGAAGCUCCAGGAAACAGUUGAACCGACUUCAAAGCAGUUAACUGAAUCCUCUGAAGAGGCAAAAGAAGCAGCAAUACCAGGACUGAAUGAAGAUGAGGUCGCUUCU: 0.179 ratio
UGACUUUGCGUAGGCUUGCGGGUGUCCAGGCCGCCUAGGCUGGAGAGAAAGCCAGUAGAAAUAGAUAUGAUUGUAGGAAAAGACCGGGAAGGUUUCUUUACCAACGGUUUGACUCUUGGA: 3.33 ratio
GUGAUGUUACUCUCCAUUUUUGGUACCAGUUCUGAGACUGUAAGACUUUUCAUCUGGGACUUUAGCACACACUGAAUCGAAGUUGUGAUACGCGGAGCGGGAGGUGGGCAUAGACUCUAU: 0.443 ratio
GGAGGAAUGUUUGGGGCCGGGAUUUAUUUUGCUGAAAACUCCUCAAAAAGCAACCAAUAUGUUUAUGGAAUUGGAGGAGGAACAGGCUGCCCUACACACAAGGACAGGUCAUGCUAUAUA: 0.666 ratio

Series 2
Target: Histone acetyltransferase KAT6A, both winged helices, GST fusion (KAT6A, Homo sapiens, UniProt Q92794, residues 1-181)
Method: protein binding microarray
Form: double-stranded DNA, one strand shown
Medium: in vitro
Concentration: not given
Notes: 8-mer, flanks averaged, mean of 2 arrays, mostly near background
Baseline: not given
Direction: higher = stronger binding
Measurement: E-score
Construct (chain): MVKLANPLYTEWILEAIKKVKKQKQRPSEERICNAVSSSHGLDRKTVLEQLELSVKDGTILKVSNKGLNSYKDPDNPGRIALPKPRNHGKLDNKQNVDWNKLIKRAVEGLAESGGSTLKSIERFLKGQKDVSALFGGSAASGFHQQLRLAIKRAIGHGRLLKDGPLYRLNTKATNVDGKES
GTCTCTAA: -0.18
GGCCCCTA: -0.123
CGAAAGAA: -0.111
CAAGCAAG: -0.0749
ACTGGTCC: 0.0311
ATTACGAA: 0.0186
CGAACATC: 0.0493
ACGATCGT: -0.00207

Single results of other studies
CCC(=O)Nc1ccc2ncnc(Nc3cccc(Br)c3)c2c1 — remaining activity (Tyrosine-protein kinase Blk (BLK, Homo sapiens, UniProt P51451); enzyme activity, inhibitor; 0.5 µM; baseline: control): 90.7%
O=C(N[C@H]1CCCCC/C=C\C2C[C@@]2(C(=O)O)NC(=O)[C@@H]2C[C@@H](Oc3ccncc3)CN2C1=O)OC1CCCC1 (stereo partly drawn) — remaining binding (Cyclin-dependent kinase 13 (CDK13, Homo sapiens, UniProt Q14004); binding, competition with immobilised ligand; 1 µM): 90%

Some of these lines once more (series 1):
AGUGAGCCUGAAGAGAAGCUCCAGGAAACAGUUGAACCGACUUCAAAGCAGUUAACUGAAUCCUCUGAAGAGGCAAAAGAAGCAGCAAUACCAGGACUGAAUGAAGAUGAGGUCGCUUCU: 0.179 ratio
UGACUUUGCGUAGGCUUGCGGGUGUCCAGGCCGCCUAGGCUGGAGAGAAAGCCAGUAGAAAUAGAUAUGAUUGUAGGAAAAGACCGGGAAGGUUUCUUUACCAACGGUUUGACUCUUGGA: 3.33 ratio
GUGAUGUUACUCUCCAUUUUUGGUACCAGUUCUGAGACUGUAAGACUUUUCAUCUGGGACUUUAGCACACACUGAAUCGAAGUUGUGAUACGCGGAGCGGGAGGUGGGCAUAGACUCUAU: 0.443 ratio
